Published values of several laboratories.
A part holds a random share of what one study measured. Several values in a cell are separate wells, animals, samples, runs or records.
UniProt P22607, sequence (whole entry, unmodified, looked up): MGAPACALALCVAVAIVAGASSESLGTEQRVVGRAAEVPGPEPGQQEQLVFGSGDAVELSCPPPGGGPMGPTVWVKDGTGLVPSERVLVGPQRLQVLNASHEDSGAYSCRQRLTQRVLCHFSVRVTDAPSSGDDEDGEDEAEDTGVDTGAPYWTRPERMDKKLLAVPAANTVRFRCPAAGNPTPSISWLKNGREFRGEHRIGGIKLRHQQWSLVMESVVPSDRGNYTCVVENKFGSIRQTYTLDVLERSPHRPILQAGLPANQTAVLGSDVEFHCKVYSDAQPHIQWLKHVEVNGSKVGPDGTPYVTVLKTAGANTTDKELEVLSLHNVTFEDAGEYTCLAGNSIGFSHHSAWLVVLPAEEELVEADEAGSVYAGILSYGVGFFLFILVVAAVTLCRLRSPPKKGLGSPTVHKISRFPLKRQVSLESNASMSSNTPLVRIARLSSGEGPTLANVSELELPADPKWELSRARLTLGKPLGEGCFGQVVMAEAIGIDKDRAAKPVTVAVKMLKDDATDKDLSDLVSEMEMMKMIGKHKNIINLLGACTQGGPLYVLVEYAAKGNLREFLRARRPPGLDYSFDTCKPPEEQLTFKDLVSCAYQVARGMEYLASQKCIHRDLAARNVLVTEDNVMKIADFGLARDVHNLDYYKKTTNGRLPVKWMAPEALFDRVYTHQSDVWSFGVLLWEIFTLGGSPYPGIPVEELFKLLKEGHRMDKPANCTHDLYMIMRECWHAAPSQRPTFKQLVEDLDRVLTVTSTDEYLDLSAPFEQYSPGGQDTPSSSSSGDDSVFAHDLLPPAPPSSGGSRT
UniProt Q9UKI8, sequence (whole entry, looked up): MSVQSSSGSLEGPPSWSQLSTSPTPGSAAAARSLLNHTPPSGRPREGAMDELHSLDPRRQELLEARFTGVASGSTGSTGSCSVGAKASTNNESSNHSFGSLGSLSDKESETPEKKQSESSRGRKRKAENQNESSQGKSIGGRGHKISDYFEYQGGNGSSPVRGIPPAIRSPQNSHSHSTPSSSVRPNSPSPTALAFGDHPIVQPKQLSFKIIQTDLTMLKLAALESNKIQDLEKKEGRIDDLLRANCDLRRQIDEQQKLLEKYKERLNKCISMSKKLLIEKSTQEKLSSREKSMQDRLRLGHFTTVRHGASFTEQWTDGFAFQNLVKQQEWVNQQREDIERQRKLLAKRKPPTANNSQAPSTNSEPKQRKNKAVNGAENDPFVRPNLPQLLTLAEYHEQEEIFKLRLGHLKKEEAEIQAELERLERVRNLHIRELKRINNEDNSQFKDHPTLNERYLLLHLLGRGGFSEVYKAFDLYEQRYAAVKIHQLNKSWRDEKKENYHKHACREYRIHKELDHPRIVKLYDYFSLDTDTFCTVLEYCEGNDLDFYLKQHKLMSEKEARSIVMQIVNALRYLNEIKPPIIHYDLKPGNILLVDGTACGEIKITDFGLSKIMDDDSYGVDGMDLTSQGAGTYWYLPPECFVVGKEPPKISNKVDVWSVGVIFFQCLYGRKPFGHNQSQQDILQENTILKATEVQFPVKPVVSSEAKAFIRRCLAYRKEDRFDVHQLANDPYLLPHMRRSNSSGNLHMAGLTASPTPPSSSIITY

Block 1 — effect on: enzyme activity; action: inhibitor; tested at: 0.5 µM; baseline: control; measurement: remaining activity
Target: Protein kinase C gamma type (PRKCG, Homo sapiens, UniProt P05129)
Compound = CN(C)C[C@H]1CCn2c(c(C3=C(c4cn(C)c5ccccc45)C(=O)NC3=O)c3ccccc32)C1; result = 6.93%
Compound = O=C(NC(NC(=S)Nc1ccc(F)c([N+](=O)[O-])c1)C(Cl)(Cl)Cl)C(c1ccccc1)c1ccccc1 (stereo not shown); result = 99.8%
Compound = C[C@@H]1CCN(C(=O)CC#N)C[C@@H]1N(C)c1ncnc2[nH]ccc12; result = 90.6%
Compound = COc1cc2ncnc(Nc3ccc(O)c(Br)c3)c2cc1OC; result = 94.1%
Compound = O=C1C(Cl)=C(N2C(=O)CCC2=O)C(=O)c2ccccc21; result = 97.5%
Compound = N#Cc1c(NC(=O)c2cccc3ccccc23)sc2c1CCCC2; result = 95.4%
Compound = CCOc1nc(NC(=O)Cc2cc(OC)ccc2OC)cc(N)c1C#N; result = 95.4%
Compound = c1ccc(-c2[nH]ncc2-c2ccnc3ccccc23)nc1; result = 117%
Compound = CCN(CC)CCNC(=O)c1c(C)[nH]c(/C=C2\C(=O)Nc3ccc(Cl)cc32)c1C; result = 101%
Compound = Ic1cccc(CSc2nnc(-c3ccncc3)o2)c1; result = 98.7%
Compound = COc1cc2ncnc(Nc3cccc(Cl)c3)c2cc1OC; result = 105%
Compound = CCN(CC)CCNC(=O)c1c(C)[nH]c(/C=C2\C(=O)Nc3ccc(F)cc32)c1C; result = 83.8%
Compound = Cc1nc2cc3nc(-c4cccs4)cnc3cc2n1C; result = 94.9%
Compound = Cn1nc2c3c(cccc31)C(=O)c1ccccc1-2; result = 90.6%
Compound = O=C1c2ccccc2-c2n[nH]c3cccc1c23; result = 98.3%
Compound = O=C(Nc1cccc(Nc2nccc(Nc3cccc(C(F)(F)F)c3)n2)c1)C1CC1; result = 90.9%
Compound = COc1cc2c(cc1OC)-c1[nH]nc(Nc3cccc(F)c3)c1C2; result = 102%
Compound = c1ccc(-c2cnc(Nc3ccc(OCCN4CCCC4)cc3)s2)cc1; result = 92.5%
Compound = CCN(CC)C(=O)c1ccc(Nc2nc(OCC3CCCCC3)c3[nH]cnc3n2)cc1; result = 94.5%
Compound = N#C/C(=C\c1ccc(O)c(O)c1)C(=O)NCc1ccccc1; result = 97.2%
Compound = Nc1cccc(-c2cc3c(Oc4cccc(O)c4)ncnc3[nH]2)c1; result = 88.1%
Compound = CN([C@@H](Cc1ccc(OS(=O)(=O)c2cccc3cnccc23)cc1)C(=O)N1CCN(c2ccccc2)CC1)S(=O)(=O)c1cccc2cnccc12; result = 95.4%
Compound = Cc1cn(-c2cc(NC(=O)c3ccc(C)c(Nc4nccc(-c5cccnc5)n4)c3)cc(C(F)(F)F)c2)cn1; result = 81.7%
Compound = Cc1cc2ncc(-c3ccccc3)nc2cc1C; result = 96.9%
Compound = O=c1cc(-c2cccc3c2Sc2ccccc2S3)oc(N2CCOCC2)c1; result = 96.9%

Block 2 — species: human; sample: microsomes or S9; tested at: 2 µM; time: 0.5 h; measurement: remaining compound
Structure (SMILES) = CCc1ccc(S(=O)(=O)C2CS(=O)(=O)CC2NCc2ccccc2C)cc1 (stereo not shown); result = 0.0405%
Structure (SMILES) = CCO[C@H]1CN(Cc2cccc(F)c2OC)C[C@@H]1O; result = 71.8%
Structure (SMILES) = O=C1CCC(C(=O)N2CCOC(c3ccsc3)C2)n2cccc21 (stereo not shown); result = 91.3%
Structure (SMILES) = O=c1ccc(-c2ccc(S(=O)(=O)Nc3cc(F)ccc3F)o2)n[nH]1; result = 33.3%
Structure (SMILES) = CC(C)C(C)(NC(=O)c1ccccc1C#Cc1ccccc1)C(N)=O (stereo not shown); result = 80%
Structure (SMILES) = O=C(NCCCN1CCN(c2ccccc2F)CC1)c1ccc2c(c1)N(Cc1ccccc1)C(=O)c1ccccc1[S+]2[O-] (stereo not shown); result = 0.518%
Structure (SMILES) = CC(C)(C)Nc1oc(-c2ccc(S(=O)(=O)N3CCOCC3)o2)nc1C#N; result = 94.3%
Structure (SMILES) = COCCOc1cc(=O)n2c(c1C(=O)NCc1ccc(OC)cc1)CCOCC2; result = 92.8%
Structure (SMILES) = CC(CO)Oc1cc(-n2nc3c(c2Cl)CCCC3)c(F)cc1Cl (stereo not shown); result = 25.6%
Structure (SMILES) = CC1CCN(C=C(S(=O)(=O)c2ccccc2)S(=O)(=O)c2ccccc2)CC1; result = 0.629%
Structure (SMILES) = O=C(c1ccc(Cn2ccn3nc4c(c3c2=O)CCCC4)cc1)N1CCN(c2ccccc2F)CC1; result = 34.6%
Structure (SMILES) = Cc1ccc(OCCCCN(C)C)c(C(C)(C)C)c1; result = 70.3%

Block 3 — effect on: enzyme activity; action: inhibitor; tested at: 77 µM; baseline: untreated; measurement: remaining activity
Target: DNA polymerase theta, ATPase domain (POLQ, Homo sapiens, UniProt O75417)
UniProt O75417, sequence (whole entry, unmodified, looked up): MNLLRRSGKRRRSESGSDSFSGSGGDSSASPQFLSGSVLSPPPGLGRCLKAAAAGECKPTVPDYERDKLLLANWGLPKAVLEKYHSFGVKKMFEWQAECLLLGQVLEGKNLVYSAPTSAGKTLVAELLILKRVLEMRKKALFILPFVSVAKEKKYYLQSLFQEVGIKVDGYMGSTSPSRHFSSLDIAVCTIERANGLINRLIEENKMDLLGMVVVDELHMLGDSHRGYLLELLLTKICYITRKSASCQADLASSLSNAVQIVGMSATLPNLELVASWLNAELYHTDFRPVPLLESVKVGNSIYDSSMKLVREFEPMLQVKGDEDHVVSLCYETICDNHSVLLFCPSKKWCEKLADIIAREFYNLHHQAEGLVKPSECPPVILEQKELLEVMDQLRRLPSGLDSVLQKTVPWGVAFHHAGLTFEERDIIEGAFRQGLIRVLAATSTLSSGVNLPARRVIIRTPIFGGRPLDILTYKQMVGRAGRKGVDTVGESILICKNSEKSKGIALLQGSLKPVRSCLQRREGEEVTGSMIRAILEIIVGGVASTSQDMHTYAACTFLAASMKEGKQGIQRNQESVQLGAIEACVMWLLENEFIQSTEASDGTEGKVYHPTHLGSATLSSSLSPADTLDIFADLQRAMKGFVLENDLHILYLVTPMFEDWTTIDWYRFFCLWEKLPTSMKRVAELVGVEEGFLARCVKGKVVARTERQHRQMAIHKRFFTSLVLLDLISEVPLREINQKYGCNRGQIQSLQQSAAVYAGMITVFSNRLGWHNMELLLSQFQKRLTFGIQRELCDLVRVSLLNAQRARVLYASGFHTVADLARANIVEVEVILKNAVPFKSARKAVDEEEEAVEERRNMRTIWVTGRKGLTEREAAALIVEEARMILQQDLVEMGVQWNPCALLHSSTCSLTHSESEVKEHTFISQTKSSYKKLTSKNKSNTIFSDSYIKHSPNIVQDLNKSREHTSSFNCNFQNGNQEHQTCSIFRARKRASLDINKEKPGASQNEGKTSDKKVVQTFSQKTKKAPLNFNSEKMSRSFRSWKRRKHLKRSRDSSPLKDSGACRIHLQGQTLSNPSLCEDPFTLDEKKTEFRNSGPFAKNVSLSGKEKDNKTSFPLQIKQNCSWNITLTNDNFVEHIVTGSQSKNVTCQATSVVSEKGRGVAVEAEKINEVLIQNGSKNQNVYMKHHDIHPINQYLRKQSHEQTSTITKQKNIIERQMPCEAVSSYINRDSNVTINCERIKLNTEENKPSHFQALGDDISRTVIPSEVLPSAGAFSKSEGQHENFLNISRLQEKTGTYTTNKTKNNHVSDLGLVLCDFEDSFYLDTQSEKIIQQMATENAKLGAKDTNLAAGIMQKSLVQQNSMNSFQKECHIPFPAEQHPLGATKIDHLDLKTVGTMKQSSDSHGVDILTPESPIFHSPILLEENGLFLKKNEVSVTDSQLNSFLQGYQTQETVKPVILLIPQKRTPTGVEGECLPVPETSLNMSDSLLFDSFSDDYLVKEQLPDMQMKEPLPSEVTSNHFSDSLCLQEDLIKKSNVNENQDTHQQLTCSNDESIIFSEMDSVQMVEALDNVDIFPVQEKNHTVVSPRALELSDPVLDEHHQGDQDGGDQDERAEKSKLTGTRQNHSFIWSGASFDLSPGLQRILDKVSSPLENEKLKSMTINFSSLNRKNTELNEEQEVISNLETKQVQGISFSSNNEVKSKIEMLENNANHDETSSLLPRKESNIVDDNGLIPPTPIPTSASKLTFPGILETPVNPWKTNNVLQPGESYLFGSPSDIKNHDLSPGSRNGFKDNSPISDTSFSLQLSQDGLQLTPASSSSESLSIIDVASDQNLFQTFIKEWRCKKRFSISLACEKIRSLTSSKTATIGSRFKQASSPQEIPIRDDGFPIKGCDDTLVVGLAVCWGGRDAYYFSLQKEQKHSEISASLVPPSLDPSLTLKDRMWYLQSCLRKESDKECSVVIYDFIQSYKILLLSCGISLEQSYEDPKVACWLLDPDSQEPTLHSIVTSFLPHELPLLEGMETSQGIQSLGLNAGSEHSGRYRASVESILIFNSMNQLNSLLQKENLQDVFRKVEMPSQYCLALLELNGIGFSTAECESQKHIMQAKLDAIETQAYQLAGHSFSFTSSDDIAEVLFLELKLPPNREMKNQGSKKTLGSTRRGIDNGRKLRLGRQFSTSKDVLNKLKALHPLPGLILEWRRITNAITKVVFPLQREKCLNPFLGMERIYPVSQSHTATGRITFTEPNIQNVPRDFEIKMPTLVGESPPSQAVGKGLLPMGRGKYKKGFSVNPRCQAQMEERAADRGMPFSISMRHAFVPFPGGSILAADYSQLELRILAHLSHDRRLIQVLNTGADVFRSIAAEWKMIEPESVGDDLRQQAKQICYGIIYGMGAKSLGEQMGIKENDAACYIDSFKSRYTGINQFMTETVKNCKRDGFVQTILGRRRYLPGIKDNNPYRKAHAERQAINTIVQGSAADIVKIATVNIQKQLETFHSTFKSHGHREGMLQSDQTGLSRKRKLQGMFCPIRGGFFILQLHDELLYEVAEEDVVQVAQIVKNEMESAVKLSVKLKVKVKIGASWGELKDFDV
Structure (SMILES) = CN(C)c1ccc(-c2nc3ncc(Cl)c(N4CCN(CC(=O)Nc5nccs5)CC4)c3[nH]2)cc1; result = 99.3%
Structure (SMILES) = CC(C)n1cnc2c(NCCc3ccc(O)cc3)nc(-c3csc4ccccc34)nc21; result = 102%
Structure (SMILES) = COc1ccc(CNC(=O)Nc2ncc([N+](=O)[O-])s2)cc1; result = 95.7%
Structure (SMILES) = N[C@H](C(=O)O)[C@H](Cc1ccccc1)C(=O)O; result = 96.4%
Structure (SMILES) = Cc1cn([C@H]2O[C@@H](CO)[C@H](O)[C@H]2F)c(=O)[nH]c1=O; result = 103%
Structure (SMILES) = CO[C@@H]1[C@@H](O[C@@H]2O[C@H](C)[C@@H](O[C@H]3C[C@@](C)(O)[C@@H](OC(=O)CC(C)C)[C@H](C)O3)[C@H](N(C)C)[C@H]2O)[C@@H](CC=O)C[C@@H](C)[C@@H](O)/C=C/C=C/C[C@@H](C)OC(=O)C[C@H]1OC(C)=O; result = 91.6%
Structure (SMILES) = COc1ccc(Cc2nccc3cc(OC)c(OC)cc23)cc1OC; result = 97.9% and 102%
Structure (SMILES) = COc1ccc(CN2CCN(C(c3ccc(F)cc3)c3ccc(F)cc3)CC2)c(OC)c1OC; result = 102%
Structure (SMILES) = CCN(CC)CCNC(=O)c1cc(Br)c(N)cc1OC; result = 99.7%
Structure (SMILES) = C[N+]1(C)[C@@H]2C[C@@H](OC(=O)C(O)(c3cccs3)c3cccs3)C[C@H]1[C@@H]1O[C@@H]12; result = 92.2%

Block 4 — effect on: cell-free assay; method: competition with immobilised ligand; tested at: 1 µM; measurement: remaining binding
SMILES: C[C@H](NC(=O)c1cnc2n1[C@](C)(Cc1ccc(C#N)cc1)C(=O)N2c1cc(Cl)c(F)c(Cl)c1)C(=O)NC1(c2ccccn2)CC1
target = IRAK1 (Homo sapiens, UniProt P51617); result = 100%
target = STK33 (Homo sapiens, UniProt Q9BYT3); result = 88%
target = Cyclin-dependent kinase 4, with cyclin D1 (CDK4, Homo sapiens, UniProt P11802); result = 100%
target = MAP4K4 (Homo sapiens, UniProt O95819); result = 100%
target = NIM1K (Homo sapiens, UniProt Q8IY84); result = 100%
target = Ribosomal protein S6 kinase alpha-5, N-terminal kinase domain (RPS6KA5, Homo sapiens, UniProt O75582); result = 96%
target = RET (Homo sapiens, UniProt P07949, V804L); result = 100%
target = GRK4 (Homo sapiens, UniProt P32298); result = 100%
target = PIM3 (Homo sapiens, UniProt Q86V86); result = 100%
target = FGFR3 (Homo sapiens, UniProt P22607, G697C); result = 100%
target = PAK4 (Homo sapiens, UniProt O96013); result = 100%
target = PHKG1 (Homo sapiens, UniProt Q16816); result = 100%
target = TLK1 (Homo sapiens, UniProt Q9UKI8); result = 100%
target = OXSR1 (Homo sapiens, UniProt O95747); result = 94%
target = BTK (Homo sapiens, UniProt Q06187); result = 100%
target = MAST1 (Homo sapiens, UniProt Q9Y2H9); result = 100%
target = TGFBR2 (Homo sapiens, UniProt P37173); result = 100%
target = WNK2 (Homo sapiens, UniProt Q9Y3S1); result = 100%
target = ERBB2 (Homo sapiens, UniProt P04626); result = 100%
target = PAK3 (Homo sapiens, UniProt O75914); result = 100%

Some of these lines once more (block 2):
Structure (SMILES) = CC(C)(C)Nc1oc(-c2ccc(S(=O)(=O)N3CCOCC3)o2)nc1C#N; result = 94.3%
Structure (SMILES) = O=C(NCCCN1CCN(c2ccccc2F)CC1)c1ccc2c(c1)N(Cc1ccccc1)C(=O)c1ccccc1[S+]2[O-] (stereo not shown); result = 0.518%
Structure (SMILES) = CCO[C@H]1CN(Cc2cccc(F)c2OC)C[C@@H]1O; result = 71.8%
Structure (SMILES) = COCCOc1cc(=O)n2c(c1C(=O)NCc1ccc(OC)cc1)CCOCC2; result = 92.8%
Structure (SMILES) = O=c1ccc(-c2ccc(S(=O)(=O)Nc3cc(F)ccc3F)o2)n[nH]1; result = 33.3%
Structure (SMILES) = CCc1ccc(S(=O)(=O)C2CS(=O)(=O)CC2NCc2ccccc2C)cc1 (stereo not shown); result = 0.0405%
Structure (SMILES) = CC(CO)Oc1cc(-n2nc3c(c2Cl)CCCC3)c(F)cc1Cl (stereo not shown); result = 25.6%
Structure (SMILES) = Cc1ccc(OCCCCN(C)C)c(C(C)(C)C)c1; result = 70.3%
Structure (SMILES) = O=C1CCC(C(=O)N2CCOC(c3ccsc3)C2)n2cccc21 (stereo not shown); result = 91.3%
Structure (SMILES) = CC(C)C(C)(NC(=O)c1ccccc1C#Cc1ccccc1)C(N)=O (stereo not shown); result = 80%
Structure (SMILES) = CC1CCN(C=C(S(=O)(=O)c2ccccc2)S(=O)(=O)c2ccccc2)CC1; result = 0.629%
